Assay results collected from several papers.
“And” joins repeats or separate records; there may be more than shown. ± marks the error that the study gave.
EPHB3: Ephrin type-B receptor 3 (EPHB3, Homo sapiens, UniProt P54753)
Chain of UniProt P54753 (whole entry, looked up): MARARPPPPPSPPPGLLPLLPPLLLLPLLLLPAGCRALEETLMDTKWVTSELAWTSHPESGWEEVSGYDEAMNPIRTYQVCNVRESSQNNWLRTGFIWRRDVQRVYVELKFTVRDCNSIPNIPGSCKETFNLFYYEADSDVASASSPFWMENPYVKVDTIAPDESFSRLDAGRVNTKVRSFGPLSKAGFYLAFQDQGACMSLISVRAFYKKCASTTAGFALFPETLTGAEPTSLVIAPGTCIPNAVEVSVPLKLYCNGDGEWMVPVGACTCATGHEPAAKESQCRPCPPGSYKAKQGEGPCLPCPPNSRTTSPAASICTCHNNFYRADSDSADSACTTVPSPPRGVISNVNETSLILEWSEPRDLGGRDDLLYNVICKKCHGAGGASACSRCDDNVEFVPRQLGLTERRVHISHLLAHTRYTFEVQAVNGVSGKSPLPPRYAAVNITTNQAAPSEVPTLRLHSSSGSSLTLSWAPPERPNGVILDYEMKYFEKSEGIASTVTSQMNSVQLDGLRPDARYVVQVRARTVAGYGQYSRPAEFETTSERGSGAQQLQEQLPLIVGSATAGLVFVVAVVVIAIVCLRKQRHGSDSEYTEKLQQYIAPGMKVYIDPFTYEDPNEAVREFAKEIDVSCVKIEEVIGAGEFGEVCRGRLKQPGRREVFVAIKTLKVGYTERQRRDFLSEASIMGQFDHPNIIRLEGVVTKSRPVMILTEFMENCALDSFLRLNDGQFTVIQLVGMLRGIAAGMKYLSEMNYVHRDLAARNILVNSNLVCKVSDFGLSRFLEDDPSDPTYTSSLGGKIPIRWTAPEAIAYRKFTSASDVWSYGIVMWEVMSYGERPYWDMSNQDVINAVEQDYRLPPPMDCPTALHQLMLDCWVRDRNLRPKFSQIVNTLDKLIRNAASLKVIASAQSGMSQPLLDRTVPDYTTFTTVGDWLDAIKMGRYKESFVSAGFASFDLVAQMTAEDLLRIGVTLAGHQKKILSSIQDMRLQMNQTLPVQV
Chain of UniProt Q9Y2J8 (whole entry, looked up): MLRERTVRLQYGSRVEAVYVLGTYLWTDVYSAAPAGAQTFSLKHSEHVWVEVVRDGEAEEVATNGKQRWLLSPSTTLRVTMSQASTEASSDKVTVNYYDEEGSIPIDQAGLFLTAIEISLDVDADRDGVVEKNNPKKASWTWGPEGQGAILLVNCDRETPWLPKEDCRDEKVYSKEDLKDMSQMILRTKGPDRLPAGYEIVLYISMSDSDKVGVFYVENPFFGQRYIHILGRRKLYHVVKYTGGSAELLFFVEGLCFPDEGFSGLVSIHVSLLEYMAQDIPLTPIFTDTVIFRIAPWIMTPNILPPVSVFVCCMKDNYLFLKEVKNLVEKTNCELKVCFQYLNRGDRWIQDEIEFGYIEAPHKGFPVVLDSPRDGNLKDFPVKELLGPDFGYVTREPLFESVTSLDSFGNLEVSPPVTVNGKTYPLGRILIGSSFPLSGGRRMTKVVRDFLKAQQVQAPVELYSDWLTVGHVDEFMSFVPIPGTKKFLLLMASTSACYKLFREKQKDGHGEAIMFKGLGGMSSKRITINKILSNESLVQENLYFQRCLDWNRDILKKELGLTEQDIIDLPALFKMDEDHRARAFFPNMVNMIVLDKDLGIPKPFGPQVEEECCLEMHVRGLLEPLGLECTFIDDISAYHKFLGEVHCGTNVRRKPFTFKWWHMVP
Chain of UniProt O42275 (whole entry, looked up): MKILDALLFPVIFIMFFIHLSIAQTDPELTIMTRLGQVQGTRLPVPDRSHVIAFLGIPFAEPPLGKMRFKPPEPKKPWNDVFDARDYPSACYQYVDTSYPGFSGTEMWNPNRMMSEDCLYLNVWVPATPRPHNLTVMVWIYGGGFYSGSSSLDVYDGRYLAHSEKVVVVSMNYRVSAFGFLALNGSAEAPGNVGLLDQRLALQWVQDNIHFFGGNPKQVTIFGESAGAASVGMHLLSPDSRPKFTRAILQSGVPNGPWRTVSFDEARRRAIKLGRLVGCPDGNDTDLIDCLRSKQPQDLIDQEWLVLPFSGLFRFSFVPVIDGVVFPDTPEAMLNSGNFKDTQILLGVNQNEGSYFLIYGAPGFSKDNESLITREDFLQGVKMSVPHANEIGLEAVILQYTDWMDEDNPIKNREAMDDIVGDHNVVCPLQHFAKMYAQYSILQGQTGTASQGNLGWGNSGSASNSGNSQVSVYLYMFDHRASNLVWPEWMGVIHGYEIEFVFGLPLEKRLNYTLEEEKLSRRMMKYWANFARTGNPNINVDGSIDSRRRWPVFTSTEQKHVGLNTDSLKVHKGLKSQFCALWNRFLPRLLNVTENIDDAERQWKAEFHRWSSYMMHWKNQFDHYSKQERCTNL
Chain of UniProt Q96PN8 (whole entry, looked up): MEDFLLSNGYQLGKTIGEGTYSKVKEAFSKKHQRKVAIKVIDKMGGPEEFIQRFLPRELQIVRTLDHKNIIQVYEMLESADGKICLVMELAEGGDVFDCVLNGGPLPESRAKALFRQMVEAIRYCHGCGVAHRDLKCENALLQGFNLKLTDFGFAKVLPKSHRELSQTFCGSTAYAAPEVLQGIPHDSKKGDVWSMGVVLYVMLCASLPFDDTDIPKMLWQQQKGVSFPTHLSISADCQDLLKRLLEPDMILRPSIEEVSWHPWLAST
Chain of UniProt O60706 (whole entry, looked up): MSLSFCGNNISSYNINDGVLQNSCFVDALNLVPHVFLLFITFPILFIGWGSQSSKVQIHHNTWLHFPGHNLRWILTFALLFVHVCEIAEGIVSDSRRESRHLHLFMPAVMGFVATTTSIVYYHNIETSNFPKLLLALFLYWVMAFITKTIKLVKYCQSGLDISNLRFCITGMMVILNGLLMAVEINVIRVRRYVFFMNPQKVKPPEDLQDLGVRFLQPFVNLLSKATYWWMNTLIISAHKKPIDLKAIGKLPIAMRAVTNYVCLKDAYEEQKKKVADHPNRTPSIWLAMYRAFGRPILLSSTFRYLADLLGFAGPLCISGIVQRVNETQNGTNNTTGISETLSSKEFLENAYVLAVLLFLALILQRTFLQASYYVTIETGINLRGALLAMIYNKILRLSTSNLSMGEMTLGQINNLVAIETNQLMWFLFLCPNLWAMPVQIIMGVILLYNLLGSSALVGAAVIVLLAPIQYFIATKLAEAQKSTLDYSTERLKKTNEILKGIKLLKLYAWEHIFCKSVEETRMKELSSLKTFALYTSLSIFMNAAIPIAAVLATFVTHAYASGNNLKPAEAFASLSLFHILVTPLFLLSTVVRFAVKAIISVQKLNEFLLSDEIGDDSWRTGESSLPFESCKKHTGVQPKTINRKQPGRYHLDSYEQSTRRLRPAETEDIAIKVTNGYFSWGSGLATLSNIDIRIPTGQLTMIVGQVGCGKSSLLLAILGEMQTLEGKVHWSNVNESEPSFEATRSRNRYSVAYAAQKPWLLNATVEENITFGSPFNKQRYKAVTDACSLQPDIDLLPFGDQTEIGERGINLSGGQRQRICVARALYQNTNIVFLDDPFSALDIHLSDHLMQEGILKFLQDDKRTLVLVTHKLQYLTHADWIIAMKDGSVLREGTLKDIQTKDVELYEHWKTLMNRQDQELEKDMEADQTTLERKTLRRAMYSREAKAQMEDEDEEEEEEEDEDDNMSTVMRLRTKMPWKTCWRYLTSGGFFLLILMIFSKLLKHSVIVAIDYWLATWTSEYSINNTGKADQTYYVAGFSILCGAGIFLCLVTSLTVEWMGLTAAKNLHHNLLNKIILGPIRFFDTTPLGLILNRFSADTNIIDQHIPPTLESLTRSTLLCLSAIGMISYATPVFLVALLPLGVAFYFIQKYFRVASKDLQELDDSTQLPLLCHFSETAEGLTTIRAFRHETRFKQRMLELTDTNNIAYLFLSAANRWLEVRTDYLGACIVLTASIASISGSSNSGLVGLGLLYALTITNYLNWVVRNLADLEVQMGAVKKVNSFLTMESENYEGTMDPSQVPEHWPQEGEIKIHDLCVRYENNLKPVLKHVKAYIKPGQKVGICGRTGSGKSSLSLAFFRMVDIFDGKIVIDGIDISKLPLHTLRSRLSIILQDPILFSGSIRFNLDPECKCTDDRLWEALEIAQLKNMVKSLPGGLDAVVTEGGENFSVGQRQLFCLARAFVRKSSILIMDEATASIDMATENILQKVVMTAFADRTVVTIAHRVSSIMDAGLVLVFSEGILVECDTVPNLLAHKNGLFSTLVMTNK
Chain of UniProt P10809 (whole entry, looked up): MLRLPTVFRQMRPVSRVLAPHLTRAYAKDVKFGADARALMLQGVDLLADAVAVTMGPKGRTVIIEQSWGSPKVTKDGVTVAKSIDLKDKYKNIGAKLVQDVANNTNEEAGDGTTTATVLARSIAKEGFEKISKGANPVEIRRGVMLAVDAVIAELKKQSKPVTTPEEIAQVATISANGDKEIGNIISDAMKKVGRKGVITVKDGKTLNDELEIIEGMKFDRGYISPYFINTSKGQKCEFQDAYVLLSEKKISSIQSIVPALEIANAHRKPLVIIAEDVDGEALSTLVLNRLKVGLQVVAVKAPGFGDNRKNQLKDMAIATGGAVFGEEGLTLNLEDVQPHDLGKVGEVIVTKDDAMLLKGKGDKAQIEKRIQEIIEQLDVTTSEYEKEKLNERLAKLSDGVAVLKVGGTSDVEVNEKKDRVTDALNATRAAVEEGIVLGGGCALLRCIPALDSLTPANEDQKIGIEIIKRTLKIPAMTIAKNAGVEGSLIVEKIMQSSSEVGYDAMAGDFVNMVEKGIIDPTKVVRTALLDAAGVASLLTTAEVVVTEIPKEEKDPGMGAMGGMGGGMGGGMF
Chain of UniProt P41145 (whole entry, looked up): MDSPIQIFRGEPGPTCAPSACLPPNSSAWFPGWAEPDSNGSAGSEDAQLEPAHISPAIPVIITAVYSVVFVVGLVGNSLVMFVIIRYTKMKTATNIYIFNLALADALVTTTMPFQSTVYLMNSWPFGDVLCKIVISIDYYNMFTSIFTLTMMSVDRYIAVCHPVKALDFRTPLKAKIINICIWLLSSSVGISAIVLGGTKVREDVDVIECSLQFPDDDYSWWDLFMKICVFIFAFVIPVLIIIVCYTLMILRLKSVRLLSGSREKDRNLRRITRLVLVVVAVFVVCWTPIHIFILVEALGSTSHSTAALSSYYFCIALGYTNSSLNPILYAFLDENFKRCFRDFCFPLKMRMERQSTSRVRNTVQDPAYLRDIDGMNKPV

For `CC[C@H](C)[C@H](NC(=O)[C@H](CO)NC(=O)[C@H](Cc1ccc(O)cc1)NC(=O)[C@H](Cc1ccc(O)cc1)NC(=O)[C@H](CC(N)=O)NC(=O)CNC(=O)[C@H](CO)NC(=O)[C@H](Cc1ccc(O)cc1)NC(=O)[C@H](CO)NC(=O)[C@H](CO)NC(=O)[C@H](CC(N)=O)NC(=O)COCCOCCNC(=O)CN1CCN(CC(=O)O)CCN(CC(=O)O)CCN(CC(=O)O)CC1)C(=O)N[C@@H](CC(C)C)C(N)=O` [copper-64 labelled], “maximum metastasis uptake” read 17.9 %IA/cc (dynamic PET; tamoxifen-induced PDAC mouse model, metastases; 27.5 min, CLDN4-expressing tumours).
`O=C1NC(=O)c2c1c1cc(F)c[n+]3c1c1c2c2cc(O)ccc2[n]1[Ru-4]312([N]=C=S)[S+]3CC[S+]1CC[S+]2CC3` (stereo not drawn) has a remaining activity of 117% (EPHB3; enzyme activity; 100 nM, human enzyme, with: 10 µM ATP; reference: untreated).
With `CC(=O)N[C@@H](CCC(N)=O)C(=O)N[C@@H](CC1CCCCC1)C(=O)N[C@@H](CNC(=O)CCl)C(=O)N[C@@H](CC(C)C)C(=O)N[C@@H](Cc1ccccc1)C(=O)O` the ΔG was -9.2 kcal/mol (Beta sliding clamp (Escherichia coli, UniProt P0A988); binding, isothermal titration calorimetry; pH 7.4, 22 °C).
For `O=C1NC2(CC2)COc2ncc(F)cc2[C@H]2COCCN2c2ccn3ncc1c3n2`, “organ-to-brain weight ratio” read 3.34 ± 0.32% (Sprague-Dawley rat, male, adrenals; oral, 2.5 mg/kg/day, 4 weeks, end of treatment).
`O=C(N[C@@H]1c2ccccc2C[C@H]1N1CCCC1)c1ccc(-c2ccnc3[nH]ccc23)nc1` has a remaining binding of 4.6% (cAMP-dependent protein kinase catalytic subunit PRKX (PRKX, Homo sapiens, UniProt P51817); binding, competition with immobilised ligand; 3 µM).
With `C[C@@H](O)[C@@H]1NC(=O)[C@@H](NC(=O)CCOCCOCCOCCOCCNC(=O)c2ccc(NN)nc2)CSSC[C@@H](C(=O)O)NC(=O)[C@H](Cc2c[nH]cn2)NC(=O)[C@H](CO)NC(=O)[C@H](Cc2ccccc2)NC(=O)[C@@H]2CCCN2C(=O)[C@H](CO)NC(=O)[C@@H]2CCCN2C1=O` [technetium-99m labelled] the tissue uptake was 1.51 ± 0.29 %ID/g (mouse HCT-116 xenograft, liver; intravenous, 37 MBq, postmortem after imaging).
With `COc1ccccc1-c1n[nH]c2nc(NC3CCN(C(=O)Cc4ccc(F)cc4F)CC3)ncc12` the relative abundance was 1.02 (bead binding, competition bead pull-down, measured: LMJF.35.0370; Leishmania donovani axenic amastigote extract; 10 µM; reference: vehicle).
The remaining signal of `CC1=CC(C)=[N+]2C1=C(CCCCN1CC=C(c3ccccc3)CC1)c1c(C)cc(C)n1[B-]2(F)F` is reported as 82.7% (Sodium- and chloride-dependent glycine transporter 1 (SLC6A9, Homo sapiens, UniProt P48067); cell-free assay; 1 µM).
For `O=C(Cc1ccc(Cl)cc1)N1CCN[C@@H]2COC[C@H](N3CCCC3)[C@H]21` (relative stereo), “loss of binding affinity” read 4 to 8 fold (Kappa-type opioid receptor (OPRK1, Homo sapiens, UniProt P41145); concentration not given).
Under “isoTOP-ABPP competition ratio”, `CCCCCCCCCCCCC/C=C/C=O` is recorded as 1.1 (60 kDa heat shock protein, mitochondrial (Homo sapiens, UniProt P10809); competitive isoTOP-ABPP, measured: HSPD1 cysteine peptide; proteome, soluble, MDA-MB-231; 100 µM, with: iodoacetamide probe; reference: DMSO over compound-treated, higher = stronger cysteine blockade).
For `N[C@H](C(=O)N1CCCC1)C1CCN(c2nccc3c(-c4ncc(Cl)cc4Cl)cccc23)CC1`, the kcat was 0.0534 s⁻¹ and 0.0569 s⁻¹ (Protein-arginine deiminase type-2 (PADI2, Homo sapiens, UniProt Q9Y2J8); enzyme activity; 1.536 µM, with: Ca2+ 0.25 mM).
The reactivity ratio of `C#CCCCCOc1ccc2c(c1)CCCN2C(=O)CCl` is reported as 1.6 (ATP-binding cassette sub-family C member 9 (ABCC9, Homo sapiens, UniProt O60706); mass spectrometry profiling; H460 cell lysate; 100 µM over 10 µM, UniProt O60706; reference: high over low concentration).
`CC(C)[C@H]1NC(=O)C[C@H]2/C=C/CCSSC[C@@H](NC1=O)C(=O)N[C@H](Cc1cccc3ccccc13)C(=O)NCC(=O)O2` has an inhibition of 23.8% (Testis-specific serine/threonine-protein kinase 3 (TSSK3, Homo sapiens, UniProt Q96PN8); enzyme activity, inhibitor; 10 µM).
For `Cc1ccc(N2CC3CCC(C2)N3C)cc1C(=O)N[C@H](C)c1cc(-c2cnn(C)c2)nc2ccccc12`, the remaining activity was 96.9% (Caspase-3 (CASP3, Homo sapiens, UniProt P42574); enzyme activity; 30 µM, 0.5 h).
`O=C(O)C(/C=C/c1ccc(Cl)cc1)=N\Nc1nc(-c2ccc(F)cc2)cs1` gave a selectivity index of 7.48 (Acetylcholinesterase (ache, Electrophorus electricus, UniProt O42275); Ellman; reference: IC50 BChE over IC50 AChE).
`Cc1cc(Oc2nc(N3CC[C@@H](c4ccncc4)C3)ncc2F)[nH]n1` gave a normalised growth of 2% and 5% and 4% (Mycobacterium tuberculosis; OD; H37Rv PurF CRISPRi knockdown; 0.03125 µM, with: anhydrotetracycline low).
`CC(C)C[C@H](NC(=O)[C@H]1O[C@@H]1C(=O)O)C(=O)NCCCCN=C(N)N` has a Hill slope of -1.35 (Cathepsin B (CTSB, Homo sapiens, UniProt P07858)).
`CC(C)(C)C(=O)OCOP(=O)(OCOC(=O)C(C)(C)C)C1CCCN(O)C1=O` (stereo not drawn) gave a CC50 of over 100 µM (MDA-MB-231).
For `CS(C)(=O)=Nc1ccc(-c2ccc(-c3nc4cc(O[C@@H]5CO[C@H]6[C@@H]5OC[C@H]6O)[nH]c4cc3F)cc2)cc1`, the inhibition was -6% (TGF-beta receptor type-1 (TGFBR1, Homo sapiens, UniProt P36897); enzyme activity, inhibitor; 10 µM).
For `CN(C)[C@H]1C[C@@]23CC[C@@]4(O2)C(=CC[C@]2(C)[C@@H](c5ccc6ccncc6c5)CC[C@H]24)C=C3[C@@H](O)[C@@H]1O`, the inhibition was 19.2% (EPHB3; ATP probe labelling, inhibitor, KiNativ profiling; 0.1 µM).
`Nc1ccc(/C=C/C(=O)N2CCc3c(oc4c(-c5ccc(F)cc5)cc(-c5ccc(C(=O)N6CCC(F)(F)CC6)cn5)cc34)C2)cn1` has a remaining binding of 90% (Serine/threonine-protein kinase Chk1 (CHEK1, Homo sapiens, UniProt O14757); binding, competition with immobilised ligand; 1 µM).

A few entries again:
`CC(C)[C@H]1NC(=O)C[C@H]2/C=C/CCSSC[C@@H](NC1=O)C(=O)N[C@H](Cc1cccc3ccccc13)C(=O)NCC(=O)O2` has an inhibition of 23.8% (Testis-specific serine/threonine-protein kinase 3 (TSSK3, Homo sapiens, UniProt Q96PN8); enzyme activity, inhibitor; 10 µM).
For `O=C(Cc1ccc(Cl)cc1)N1CCN[C@@H]2COC[C@H](N3CCCC3)[C@H]21` (relative stereo), “loss of binding affinity” read 4 to 8 fold (Kappa-type opioid receptor (OPRK1, Homo sapiens, UniProt P41145); concentration not given).
`Cc1cc(Oc2nc(N3CC[C@@H](c4ccncc4)C3)ncc2F)[nH]n1` gave a normalised growth of 2% and 5% and 4% (Mycobacterium tuberculosis; OD; H37Rv PurF CRISPRi knockdown; 0.03125 µM, with: anhydrotetracycline low).
